# Measurements pooled from the literature.
# Each numbered part is a random draw from the data of one study; scales do not carry over between parts.

# Sample 1 — method: protein binding microarray; form: double-stranded DNA, one strand shown; sample: in vitro; concentration: not given; relative to: not given; reading: higher = stronger binding
# Target: Histone acetyltransferase KAT6A, winged helix 1, GST fusion (KAT6A, Homo sapiens, UniProt Q92794, residues 1-85)
# Setting: 8-mer, flanks averaged, mean of 2 arrays, mostly near background
# Target sequence (chain): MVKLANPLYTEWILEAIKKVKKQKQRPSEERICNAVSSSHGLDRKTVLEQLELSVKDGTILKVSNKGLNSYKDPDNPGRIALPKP
Strand,E-score
GCTGACAC,0.0497
ACACGTAA,-0.117
CTGATAAG,-0.169
GAGCTGGC,-0.239
CTTACCCC,-0.132
CCTAACAG,-0.045
GATTCTCC,-0.0632
TCTCTGAA,-0.153
GAACGGTA,0.129
ACGAGTGA,-0.125
GACTCGGA,0.0927
AACCTTGG,-0.0916
CGAGGCTA,-0.139
ACTTTTAA,0.0159
CGGATCCG,0.338
ACGACCGG,0.124
GCGTGTTA,0.126
AGGAAAGA,-0.12

# Sample 2 — method: protein-binding microarray; form: double-stranded DNA, one strand shown; sample: in vitro; concentration: 2540 nM top; setting: 60-bp whole probe; added: salmon DNA 0.4 mg/ml; relative to: random background probes; reading: higher = stronger binding; all sequences stand within: GCCTAGCAC … GTCTTGATTCGCTTGACGCTGCTG
# Target: Interferon regulatory factor 3, full length, phosphomimetic (IRF3, Homo sapiens, UniProt Q14653, residues 1-427, S386D/S396D/S398D/S402D/T404D/S405D)
# Residues (chain): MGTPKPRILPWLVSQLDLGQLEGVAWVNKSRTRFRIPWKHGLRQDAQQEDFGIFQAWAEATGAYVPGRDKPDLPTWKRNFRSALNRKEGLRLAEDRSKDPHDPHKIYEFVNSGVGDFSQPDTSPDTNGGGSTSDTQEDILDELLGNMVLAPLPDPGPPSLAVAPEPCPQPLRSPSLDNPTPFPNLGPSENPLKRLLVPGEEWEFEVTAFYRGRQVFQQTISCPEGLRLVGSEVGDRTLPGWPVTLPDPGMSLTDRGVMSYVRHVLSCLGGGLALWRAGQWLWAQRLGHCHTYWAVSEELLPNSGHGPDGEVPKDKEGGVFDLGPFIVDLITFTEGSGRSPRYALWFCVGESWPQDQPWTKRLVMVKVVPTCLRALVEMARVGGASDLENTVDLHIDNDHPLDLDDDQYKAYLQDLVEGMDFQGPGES
Strand,fitted relative affinity [z-score]
TCAGTTCTGAGTCTTCCACTGTGCTAG,0.739
TCACCTTTCTCTTGGAGACTGTGCTAG,5.03
GACGGACTGGCACTGGGGACGTGCTAG,-0.995
GACGATTTCCGTATCGAGACGTGCTAG,3.46
TTAGGTCTCGGTATCGGCTAGTGCTAG,1.02
TTAGGCATCGACACTGGGTTAGTGCTA,-0.913
TCAATTACCTCATCTTTCACTGTGCTA,0.858
GACGGTTCCGACACTGGGGACGTGCTA,0.787
GCCGGTTTCGACTTTCGGGACGTGCTA,4.34
GTTAGTGGGATGGCTGTGGTGTGCTAG,-1.01
GTGGGTTTGAGTCTTCTCCTGTGCTAG,-0.933
GACGGACTTGGTATCGGGACGTGCTAG,0.331
GAAGATTTCAGTTTCGAGACGTGCTAG,5.02
GACGGACTGGACTATCGGGAAGTGCTA,-0.465
GACTGTATCGACACTGGGGACGTGCTA,0.593
GACGACCTGGGGTTTCGAGACGTGCTA,-0.0225
GAGGAACTGAGTCTCGAGACGTGCTAG,-0.733
TCATAACTTATTCTCTAACTGTGCTAG,0.518
TTAGAAATGGGGTATCGATTAGTGCTA,-0.225

# Sample 3 — method: RNA Bind-n-Seq; form: RNA; sample: in vitro; concentration: 200 nM; setting: whole 134-nt RNA, ends assumed; added: 150 mM LiCl; relative to: input library; reading: higher = stronger binding; each molecule: 7-deaza-guanosine replaces G
# Target: Ras GTPase-activating protein-binding protein 1, full length (G3BP1, Homo sapiens, UniProt Q13283)
# UniProt Q13283, sequence (whole entry, looked up): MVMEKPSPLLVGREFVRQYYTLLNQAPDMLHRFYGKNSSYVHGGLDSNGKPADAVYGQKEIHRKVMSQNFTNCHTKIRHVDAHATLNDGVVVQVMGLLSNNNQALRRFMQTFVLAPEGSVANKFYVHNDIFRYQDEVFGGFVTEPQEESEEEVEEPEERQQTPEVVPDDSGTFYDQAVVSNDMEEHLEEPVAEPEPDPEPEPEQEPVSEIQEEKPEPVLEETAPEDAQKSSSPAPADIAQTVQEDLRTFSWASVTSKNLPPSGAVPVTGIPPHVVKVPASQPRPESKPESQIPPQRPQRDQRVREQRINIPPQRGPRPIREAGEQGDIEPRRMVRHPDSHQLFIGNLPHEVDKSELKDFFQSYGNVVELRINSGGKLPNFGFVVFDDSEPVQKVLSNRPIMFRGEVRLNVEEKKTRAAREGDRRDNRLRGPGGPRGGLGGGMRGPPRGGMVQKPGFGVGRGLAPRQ
Strand,log2 enrichment
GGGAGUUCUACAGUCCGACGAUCUCCUGUGCUACACAUCGUAUGUACCGAAUCGGGGUUUGGGGUUUUUGGGGUUUUUGGGGAAAGUAUUAUGUUACGCCGUUCGGAUCUGCAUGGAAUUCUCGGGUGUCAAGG,0.0467
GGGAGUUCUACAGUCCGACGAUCAGUCCUGUGCUACACAUCGUAUGUACCGAAUCAAAUUUAAACCCAAACCCCCCCAAAAAAGUAUUAUGUUACGCCGUUCGGAUCUGCACUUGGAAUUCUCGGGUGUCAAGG,1.05
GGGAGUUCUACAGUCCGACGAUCUUCAGGAUGAAGAUGCAUCAGGGGGCGAUCAAGAUCAGGAAGAAAGAAGAUGGAACAAAAGGACUCAGCAGAUGCUUCAUGGUCUUCAGGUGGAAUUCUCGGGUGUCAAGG,-2.3
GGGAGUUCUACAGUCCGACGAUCCAAGUCCUGUGCUACACAUCGUAUGUACCGAAUCGGUUUUUGGUUUGGUUUUUGGAAAGUAUUAUGUUACGCCGUUCGGAUCUGCACUUCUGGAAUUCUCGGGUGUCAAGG,-1.26
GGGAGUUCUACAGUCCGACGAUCGUCCUGUGCUACACAUCGUAUGUACCGAAUCGGGAAAGGGUUUUUGGGUUUUUUUGGGAAAGUAUUAUGUUACGCCGUUCGGAUCUGCACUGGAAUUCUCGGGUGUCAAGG,-1.26
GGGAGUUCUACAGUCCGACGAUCCCUCAAGUCCUGUGCUACACAUCGUAUGUACCGAAUCGGUGGAAAGGAAAGGAAAGUAUUAUGUUACGCCGUUCGGAUCUGCACUUCCAGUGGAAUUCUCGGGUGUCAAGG,0.353
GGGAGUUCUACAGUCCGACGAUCAAGUCCUGUGCUACACAUCGUAUGUACCGAAUCGGUUUUUGGAAAGGUUUUUUUGGAAAGUAUUAUGUUACGCCGUUCGGAUCUGCACUUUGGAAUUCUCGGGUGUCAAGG,-1.67
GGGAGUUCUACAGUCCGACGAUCCUCAAGUCCUGUGCUACACAUCGUAUGUACCGAAUCGGAGGUGGAAAAAAAGGAAAGUAUUAUGUUACGCCGUUCGGAUCUGCACUUCCAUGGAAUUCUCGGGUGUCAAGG,-0.747

# Sample 4 — method: RNA Bind-n-Seq; form: RNA; sample: in vitro; concentration: not given; setting: RNA with constant flanks, ends assumed; relative to: input RNA pool; reading: higher = stronger binding
# Target: RING finger protein unkempt homolog, zinc fingers 1-6, GST-SBP tag (UNK, Homo sapiens, UniProt Q9C0B0, residues 30-357)
# UniProt Q9C0B0, sequence (30-357, looked up): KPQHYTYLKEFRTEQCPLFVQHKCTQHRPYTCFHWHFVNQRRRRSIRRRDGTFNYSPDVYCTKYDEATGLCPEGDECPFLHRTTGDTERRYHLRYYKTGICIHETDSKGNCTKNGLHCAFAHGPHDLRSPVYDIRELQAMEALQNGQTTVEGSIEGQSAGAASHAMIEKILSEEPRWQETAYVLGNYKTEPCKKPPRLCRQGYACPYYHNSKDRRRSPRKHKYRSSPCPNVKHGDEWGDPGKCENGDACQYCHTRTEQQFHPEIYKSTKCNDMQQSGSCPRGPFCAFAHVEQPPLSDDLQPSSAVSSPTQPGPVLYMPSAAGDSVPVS
Strand,bound/input enrichment [ratio]
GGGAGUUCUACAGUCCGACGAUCGUCCUUAUUGAUCCUUUUUCUUGGCGUUACCAUUUUUGAAGCAAAGUUAACCUAGCUUUCCCGCUUGAGCUUUCUUUUUGGCCAUCUUUUAAAACUUUUUUUUUUUUUUUUGAUCUAUAACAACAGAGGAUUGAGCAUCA,2.63
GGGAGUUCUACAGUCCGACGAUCAAUGUGCUGUGUCAAGAGCAGCGGCGGUGACGCAGGUGUAGAGAUUUGUCAGAGCUCAUGCCGUUGCCGUCUUAAGGCCUGUGCAUUUCACUGCGUGGGUUACUCAAUUUAUAAAGCAAACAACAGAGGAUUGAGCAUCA,0.148
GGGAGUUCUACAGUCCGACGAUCAUGAUUUUGCAGUGUGGAAGCGUUGAAAAUUGAAAGUUACUGCUUUUCCACUUGCUCAUACCGUAAAGGGAUCCUUUCAGCUGCCAGUGUUGAAUAAUGUAUCAUCCAGAGUGAUGUUAUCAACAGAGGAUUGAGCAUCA,0.144
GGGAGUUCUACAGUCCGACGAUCAGUUGAUAGUUUCACUCCCAAGCAAUGAAUUGCUUCUGUGUGUUUCCCUGUAGGACUCAACCGUAAAUGCUGUCUGUCUUACACAUUUAUAAGGACCCUGCAAGACGACGACAAAGGCCUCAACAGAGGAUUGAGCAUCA,0.315
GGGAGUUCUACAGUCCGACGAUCAAAGCAACUUUUAUCAAAGUACCCCAGAACCAAAAUGGCAAAUCUAAAGGGUAUGCAUUUACCGAGUUUGCUUCAUUCGAAGACGCUAAAGAAGCUUUAAAUUCCUGUAAUAAAAGGGAACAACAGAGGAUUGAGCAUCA,0.115
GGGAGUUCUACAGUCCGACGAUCUUUGGACAUCGGUUACAGGAAAACUUUUCCUUAGAUCUUCUCAAAACUGCAUUUGUUAACCGCUGCUAUAUUAAAAGUGAGGAGGCCAAACGCCAACAACUUGGGAUAGAGAAAGAAGCUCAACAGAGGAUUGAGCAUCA,0.491
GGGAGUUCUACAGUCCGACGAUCGAGAUGACGCUGGCCCAGCUAUUUCUACAGUCUGAAGCUGCUUAUUGCUGUGUCAGUGAAUCCGGAGAGCUUGGGAAGGUCCAAUUUCGGGAUUUAAAUCCAGAUGUGAAUGUUUUCCAGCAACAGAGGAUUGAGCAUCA,0.109
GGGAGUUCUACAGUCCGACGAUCCUCAUUGUCUUAGGAUAUAAUGGAUCUCUCCCAAACGGUGAUAGAGGAAGGAGGAAAAGCCGGUUUGCUUUGUUUAAAAGACCUAAGGCAAAUGGGGUGAAGCCUAGCACCGUGCACAUUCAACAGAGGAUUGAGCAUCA,0.175
